Measured values collected from several papers.
Numbered parts are unrelated; each lists some results of a single study. Changes are numbered by the printed parent chain.

Sample 1
Target: RING finger protein unkempt homolog, zinc fingers 1-6, SBP tag (UNK, Homo sapiens, UniProt Q9C0B0, residues 30-357)
Sequence of UniProt Q9C0B0 (30-357, looked up): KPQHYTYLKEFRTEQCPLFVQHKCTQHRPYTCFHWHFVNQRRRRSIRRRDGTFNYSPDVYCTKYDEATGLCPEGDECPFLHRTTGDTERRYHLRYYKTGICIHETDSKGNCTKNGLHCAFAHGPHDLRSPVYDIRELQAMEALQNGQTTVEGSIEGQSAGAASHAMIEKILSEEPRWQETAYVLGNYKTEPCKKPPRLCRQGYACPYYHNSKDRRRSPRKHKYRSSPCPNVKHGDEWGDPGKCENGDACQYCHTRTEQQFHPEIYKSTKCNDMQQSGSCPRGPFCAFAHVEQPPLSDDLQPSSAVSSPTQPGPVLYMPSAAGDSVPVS
Technique: RNA Bind-n-Seq
Form: RNA
Matrix: in vitro
Concentration: 100 nM
Notes: RNA with constant flanks, vertebrate orthologous sites, ends assumed
Baseline: input RNA pool
Direction: higher = stronger binding
Constant ends, left off below: GGGAGUUCUACAGUCCGACGAUC … CAACAGAGGAUUGAGCAUCA
Oligonucleotide	bound/input enrichment
AUAGUGGGUUCCUGUCUACUUCUUUCAAGUGUGUGUGGAGGUGGGCGGGGGGAGCCCGCAGAGAUUUCUUAUACAUCUGAUUUGACUGUUCUGGUUUUGCUUUCUAUUAUUUUUAUAUAU	0.805 ratio
GUGACUUUGGAAGUCCGCUCAUCAUCUGUGCAGAGUCUAGCCGGUUCCGGGCCUUGCAGUAUUGUUUUUCUUUGCUGCACCCGAGACCUCUGUCGCAACCAUGCUCCGCCAUAUCGUCGG	0.131 ratio
CGGCUGAUUCGCUCAUCGGAAGAGCUGCACACAUAGCUGUUCUUGAUUCUGAGAUAUUUUUAGAGAAGUUUUUCCUGGUUGCCGCCCUCAAAUAUUUUCAGUAGGACCGAAGCAUCAUUA	0.841 ratio
CUCUAUGGGCCUCGCAGAGUUGAAAUAAUGGAAGAGGAAAGUGAAUAGUGAUCUUCAUUUUAGUAUUUAUGCUUAGGUAUGAAAAUAAAUGUUAUUUGUUGAUUAUUUCUAUAAUCCAGA	0.692 ratio
AUAAUCACUCUAAUUGUAAUCUGAAUAAAGUGUAACAUUGUGUAGCCUUUUUGUAUAAAAUAGACAAAUAGAAAUGGUCUAAUUAGUUUCCUUUUUAAUAUGCUUAAAAUAAGCAGGUGG	2.39 ratio
CAGUCAUGGAGAAAAACAUAUUAAAAUAAUUUCAUGGCACUGAUGUUAAUUCUAGUCUAUUAGUUUUAUAAAAGUUAGGAUUCUUAUUUAGGAACAACAGGAAAUGACUGUUAAGGAGAA	1.41 ratio
UUGUAGUGUUUAUGACAACAGUUUUGAAAUUCUAUUUAUUUGCAUAUGUAAGUUUGUACAUAGUAAACCUCAGAUUGGUUUUGGUUUUUUUGGUUUUUUGAGGGACAAGUUUGACUUUUG	0.631 ratio
CAGCUGAUUCACUCAUUGGGAGAGCUGCACACAUAGCUGUUCUUGAUUCGGAAAUAUUUUUAGAGAAAUUCUUUCUGGUUGCUGCCCUUAAAUAUUUCCAAUAGGAUAAAAACGUUAUUA	1.18 ratio

Sample 2
Target: Sal-like protein 4, full length isoform B (SALL4, Homo sapiens, UniProt Q9UJQ4-2, residues 1-616)
Technique: universal PBM
Form: double-stranded DNA, one strand shown
Matrix: in vitro
Concentration: not given
Notes: 8-mer, flanks averaged, mean of replicates
Direction: higher = stronger binding
Oligonucleotide	E-score
GATCCCTA	-0.12
GCGGGTCC	-0.34
CACACTCG	-0.0679
CACGGCTA	-0.0574
AGTTGTGA	0.171
ACGAGAAC	0.0228
AAGAAGCC	0.00703
AAACAAGT	0.164
TATCGAAA	0.229
TGCCCGAA	-0.0388
ATGCTATC	0.102
GACTTAGA	-0.042
CTCTTCTA	0.0729
CGATTCGC	-0.119
ATATGCTG	0.146
AGCTAGTG	-0.226
ACGTCTTA	0.136
TCCACCGA	-0.19
AGATCCGC	-0.144
GCCATTCA	-0.00469
CCTCGCCC	-0.236
AATATAGT	0.395
AATGGCTC	-0.0249
AACCGTAT	-0.0465
AACTTGAC	0.0788

Sample 3
Target: CCNB1, cyclin fold, Cln2 fusion (human)
Technique: yeast growth competition, sequencing
Matrix: yeast
Notes: weak parent motif
Baseline: not given
Direction: higher = stronger binding
Parent: WEE1 docking peptide (human); CTLRQKLIFSPCS
Variant	normalised enrichment score
K6A	0.149
S13A	0.518
Q5A	0.566
L3A	0.747
I8A	0.532
F9A	0.149
C1A	0.154

Sample 4
Molecule: PhoQ, residues 284 288 289 292 302 303 WVSSAF
Technique: Sort-seq
Measured: YFP reporter
Matrix: E. coli
Notes: PhoQ-PhoP variant library
Added: 10 µM Mg2+
Baseline: high Mg2+ state
Direction: higher = stronger signaling
target	fold induction
PhoP, residues 12 14 15 18 19 TQAML (Escherichia coli, UniProt P23836)	15.9
PhoP, residues 12 14 15 18 19 NQCAL (Escherichia coli, UniProt P23836)	18.9
PhoP, residues 12 14 15 18 19 LHTVL (Escherichia coli, UniProt P23836)	1.08

Sample 5
Target: ABI1, truncated, D143A, DHFR fusion (Arabidopsis thaliana)
Technique: DHFR PCA, deep sequencing
Matrix: yeast
Notes: methotrexate growth selection, single substitutions
Added: (+)-ABA 0 µM
Baseline: wild-type fitted maximum
Direction: higher = stronger binding
Parent: PYL1, truncated, DHFR fusion (Arabidopsis thaliana); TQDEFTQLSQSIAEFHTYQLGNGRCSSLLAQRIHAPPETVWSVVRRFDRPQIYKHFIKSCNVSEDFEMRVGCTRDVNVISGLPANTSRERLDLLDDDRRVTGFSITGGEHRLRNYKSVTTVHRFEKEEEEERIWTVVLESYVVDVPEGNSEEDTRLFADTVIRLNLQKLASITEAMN; partner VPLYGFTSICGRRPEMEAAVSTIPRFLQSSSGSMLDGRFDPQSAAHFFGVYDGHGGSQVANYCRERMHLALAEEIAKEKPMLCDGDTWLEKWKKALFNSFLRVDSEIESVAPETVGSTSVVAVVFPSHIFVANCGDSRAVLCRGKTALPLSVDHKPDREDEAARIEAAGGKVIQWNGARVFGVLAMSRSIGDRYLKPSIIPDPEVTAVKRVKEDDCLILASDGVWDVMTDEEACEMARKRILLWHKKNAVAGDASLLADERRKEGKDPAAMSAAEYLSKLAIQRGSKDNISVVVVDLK
Variant	relative binding score [%]
V76D	2.54
Y18Q	2.51
M68E	-3.3
E151I	25.7
L91K	-6.11
S104I	-4.05
R111K	11.6
Q2V	60.7
I52D	32.7
P37I	0.793
G107S	29.5
E109N	34.6
R132E	46
V161C	57.8
R45L	-1.47
D159K	-4.07
I12H	1.51
P50E	1.33
E64K	46
K168P	-0.713
I52C	10.1

A few entries again (sample 3):
Variant	normalised enrichment score
F9A	0.149
Q5A	0.566
S13A	0.518
I8A	0.532
K6A	0.149
C1A	0.154
L3A	0.747
